Assay results collected from several papers.
Parts stem from different laboratories: compare values within a part only. Changes are numbered by the printed parent chain.

Study 1
Target: CCNE1, cyclin fold, Cln2 fusion (human)
Technique: yeast growth competition, sequencing
Matrix: yeast
Setting: strong parent motif
Baseline: not given
Direction: higher = stronger binding
Starting sequence: CDKN1B docking peptide (human); PSACRNLFGPVDH; partner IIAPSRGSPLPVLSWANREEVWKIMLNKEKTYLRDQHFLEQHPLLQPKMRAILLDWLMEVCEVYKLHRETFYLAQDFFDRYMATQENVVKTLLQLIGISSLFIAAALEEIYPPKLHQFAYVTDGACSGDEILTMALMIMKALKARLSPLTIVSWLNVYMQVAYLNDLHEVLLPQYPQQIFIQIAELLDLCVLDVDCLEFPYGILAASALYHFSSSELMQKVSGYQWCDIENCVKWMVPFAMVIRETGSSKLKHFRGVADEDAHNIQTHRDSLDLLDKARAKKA
Variant | normalised enrichment score
PSACANLFGPVDH [R5A] | 0.136
PLACRNLFGPVDH [S2L] | 1.63
PSACRNLFGPVTH [D12T] | 2.77
GSACRNLFGPVDH [P1G] | 3.13
PSFCRNLFGPVDH [A3F] | 3.55
PSACWNLFGPVDH [R5W] | 0.292
PSACANAFGPVDH [R5A L7A] | -0.193
PSAIRNLFGPVDH [C4I] | 1.51
PSACRNLFGPVDT [H13T] | 2.88
PSACRNLFGKVDH [P10K] | 2.88
PSACRNLMGPVDH [F8M] | 0.176
PSACRYLFGPVDH [N6Y] | 0.3
PSACRNLFSPVDH [G9S] | 1.17
PSACRNLFGCVDH [P10C] | 3.06
PSACRNLFGQVDH [P10Q] | 2.96

Study 2
Target: Interferon regulatory factor 5, full length, phosphomimetic (IRF5, Homo sapiens, UniProt Q13568-2, residues 1-514, S451D/S453D/S456D/S462D)
Technique: protein-binding microarray
Molecule type: double-stranded DNA, one strand shown
Matrix: in vitro
Concentration: 940 nM top
Setting: 60-bp whole probe
Together with: salmon DNA 0.4 mg/ml
Baseline: random background probes
Direction: higher = stronger binding
Constant ends, left off below: GCCTAGCAC … GTCTTGATTCGCTTGACGCTGCTG
Strand | fitted relative affinity [z-score]
TTAGGTCTCCTTATTCTTTAGTGCTAG | 0.755
TCAATTGTGGCTTTTTAACTGTGCTAG | 0.179
CTGGAATCAATTTATTGACCGTGCTAG | -0.667
TTAGGAATGGGTATCGGTTAGTGCTAG | 3.9
TTAGCTATCCTTTTCCTTTAGTGCTAG | 0.858
GACGATATCGGGTATCGAGATGTGCTA | 1.2
TTAGAACTGAGTTTCGTTTAGTGCTAG | 5.59
AGCTTTCCCAACATCAGAGCGTGCTAG | 0.39
GACGATTTCAGTTTCGAGATGTGCTAG | 4.48
GACGGTATGGGGACTGGGGACGTGCTA | 0.0258
GACGGTTGCGGGTTTCGGGACGTGCTA | 2.63
CTGGTGCTCATCTGTCATGTTGTGCTA | 0.241
GAAGTTCTAAATATCTTTGTGTGCTAG | -0.0649
TTAGGCATCGGTATCGGTTAGTGCTAG | 4.3
GATGGTATCGACACTGGGGACGTGCTA | 5.31
GACGGACTGGTTATCCTGACGTGCTAG | -0.598
GACGATTTCAGACTGGACACGTGCTAG | -0.361

Study 3
Target: RNA binding protein fox-1 homolog 2, RRM domain, GST-SBP tag (RBFOX2, Homo sapiens, UniProt O43251-10, residues 100-194)
Technique: RNA Bind-n-Seq
Molecule type: RNA
Matrix: in vitro
Concentration: 365 nM
Setting: natural RNA segment, single round, ends assumed
Baseline: no-protein control
Direction: higher = stronger binding
Constant ends, left off below: GGGAGUUCUACAGUCCGACGAUC … UGGAAUUCUCGGGUGCCAA
Construct (chain): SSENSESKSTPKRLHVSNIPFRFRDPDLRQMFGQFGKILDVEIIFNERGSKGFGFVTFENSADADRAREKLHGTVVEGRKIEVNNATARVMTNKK
Strand | RBNS enrichment (R)
CAAAUUGGCAUCUCAUUCUACCUCUAAACCACUGGGUUGGUAUGGGUAUGAAUGCUCAGAGCUCACCCGAGCAUGCUGGUAGAGUCAGGGUGUGUAUUUAGUCACCAACC | 3.01
UUCCCCCACCCCCCCAGUUUUUUCAGAUUUCUUUACCUUUUUUUAAUUAAACUGUUUUGGAAAAAUGCGUGGUCGUCCUCGAAUUUGCAGUUUUCCAUUUGGUCGGGAUG | 0.794
UGCAAUACCUGCUUAUAUCAUGUAGAAAAGCUUAGCAAUUAUUAAUUUUUCUUUUAUUUUUUUUUAUUUGACCAAAGUCGGUGCUGCACUUGACGCAGUGUGUUUUAGGU | 0.889
GUGAACGUUAGCUUUUCUCAAACCCACACAAAUCCUUGAACAGGAAUUGUUUAUAGUGACCACACUAAUUAUUUUAACUGUACACAUCAGUUUAACAUCUUUUAAAAUUU | 0.699
GAAUUCUUGAUAAAUGGCUAAUGCUUUUCUCUCACACUGCUAAUCUUUGGAUGGAAACCAUUCUUUAUAUUGAUGGACAGUUUUCAGAAAACUAUCAACAGGUGUACAAG | 0.235
GUAGCAAGGGAGCCCUACUGCAUAGCCAGUAACUCGCGUCUGUACCAUGGAAAGGGCGGAACGAUUCUCCAGGACAGCCAGCUCUUUCGUUGAAGAUCUAUCUAUGCAUU | 0.618
UUGUAAAGAGCAAAAUUACUUUCAGGUCCCUUGUUGAGGGAACAGGUCAGCGUUAUCCUGCCAGACAUCUGGGUCAGGAACUUGGGAGACAACAUCUGCUUACCUGGCAG | 0.294
GGGAGAUACAAUUCAAGUUGAGAUUUGUGGGGGGACACAACCAAACCAUAUCAGCAUCCUUUCAAGAAUAUUAGAUAAUUGGAGCUGAGUACUCAGGAACUUGACUGUAG | 0.554
UCUGAUUCUCCGGGAGCCGUUCAAUGGUGAGGUUGAUGGGAAGACUUCCUUCCCAAAGAAAAUAGAUCCUCCAUGCAGGAUCUAGGAGAGUGACUGGGUGUGCCAAAAUA | 0.309
UUUCUACCACCAUAUUUUAAAGAUAUUUUUAUGACCGUGUAUACUCACACUUUGCUUGUAUUUUAAAAGGAGGAUAUAUUUGCACUUAUGUAUACUUUUACAGUUUGCCA | 5.69
AUCCUUUGUAUCAUAGCAAAGGAAAUGUUUAAAAGAUCAACUGUAAUAAAAGUAAUUUUAGUACACAUGUCUGCUCACUUUAUUUUUUAGAUUUUGUUUUAUUUGUUUAU | 5.17
CCACUGGAUUUUGGGGUUCCCAGCACCCCAUGUGGAUUUUGGGGGGUCCCUUUUGUGUCUCCCCCGCCAUUCAAGGACUCCUCUCUUUCUUCACCAAGAAGCACAGAAUU | 0.242

Study 4
Target: Centromere-binding protein 1, full length, His-tagged (CBF1, Saccharomyces cerevisiae, UniProt P17106, residues 1-351)
Chain of UniProt P17106 (whole entry, looked up): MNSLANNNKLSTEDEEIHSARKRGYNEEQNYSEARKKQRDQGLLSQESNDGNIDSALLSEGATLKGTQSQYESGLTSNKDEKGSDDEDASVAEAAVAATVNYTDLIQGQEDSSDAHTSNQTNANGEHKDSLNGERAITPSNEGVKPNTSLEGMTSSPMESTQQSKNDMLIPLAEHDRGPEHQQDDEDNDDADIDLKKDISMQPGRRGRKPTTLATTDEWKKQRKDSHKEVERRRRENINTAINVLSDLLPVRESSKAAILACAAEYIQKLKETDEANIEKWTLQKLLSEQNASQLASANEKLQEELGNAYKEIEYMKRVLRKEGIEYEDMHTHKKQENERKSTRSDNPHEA
Technique: competition protein-binding microarray
Molecule type: double-stranded DNA, one strand shown
Matrix: in vitro
Concentration: 2 µM
Setting: whole 60-bp probe, lowest competitor level
Together with: Pho4 competitor, 0.05 µM
Direction: higher = stronger binding
Constant ends, left off below: … GTCTTGATTCGCTTGACGCTGCTG
Strand | fluorescence intensity
GACATCTGGCGTAGTCACCTGTCAGAGAAATCGCGG | 509 a.u.
CGTCCTAGCGATTGACACGTGTTTTCCATGAGGAAG | 1620 a.u.
GTCTTGTCTCATTGCTTGGTGGGTGTCCCCACTTCA | 68.3 a.u.
ACTCAAAAGCGTACTCACGTTTTGAAGAAGAACCCA | 175 a.u.
TGCGCAACAACTTTTCACGTGCGTTTATGTCTAGAA | 1080 a.u.
CTTCTGTAAATTTGTCACGACACTTGACGCGCCCCG | 252 a.u.
AGAGGCCCCAGGAGCAACGTGATGGTATAACTGCCC | 178 a.u.
GTCTTGTCTCATTGGTGGGTGGGTGTCCCCACTTCA | 89.6 a.u.
TTCACAGATATTTCTTCCGTGATGGTTTAATGGTCA | 93.8 a.u.
TTGTTCGAGTCTTTGCACGATCAAGCCTTTACTCTG | 63.9 a.u.
TACGTTCTGAGAAAGCACGTGAAGGAAGAGAAAACC | 1330 a.u.
CTTCTGTAAATTTGCCATGTGGGTGGACGCGCCCCG | 114 a.u.
ATGTACAGCGGTACCCTCGTGTTTTCTGCAGCGAGA | 85 a.u.
GTATTATTATTCAAACGCGTGGTGATAGTCCCTTGA | 106 a.u.
CTTCTGTAAATTTGGGGGGTGGGTGGACGCGCCCCG | 103 a.u.
AAAGAGCATTCGAGTCACGTGTATACATTCAAGTGA | 7070 a.u.
AAATTACTAAGTTGACGTGTGGGTGACGCCGTATGA | 73.1 a.u.
ACAACCCTTCCCTTACGCGTGGTCGCTCCCAGTCGA | 58.1 a.u.
CGAAGCACTCTCCAACACGTGACTCGGATAACGACC | 7530 a.u.
AAAGCGGTAATTTGTGTAGTGGGTGCAGATATCTAT | 75.6 a.u.
GTCTTGTCTCATTGTCACGGAACTTTCCCCACTTCA | 112 a.u.
GATTGCATACCCGCACTCGTGCTTTCATGCTAATTG | 108 a.u.
AAGACTTAACGATACCACGTGTACAAAGCACTGAAT | 1890 a.u.
CGTCCTAGTGATTGGGATGTGGGTGCCATGAGGAAG | 89.2 a.u.
AAATTACTAAGTTGTCACGTAACTTACCCCGTATGA | 118 a.u.

Study 5
Target: Ras GTPase-activating protein-binding protein 1, full length (G3BP1, Homo sapiens, UniProt Q13283)
Chain of UniProt Q13283 (whole entry, looked up): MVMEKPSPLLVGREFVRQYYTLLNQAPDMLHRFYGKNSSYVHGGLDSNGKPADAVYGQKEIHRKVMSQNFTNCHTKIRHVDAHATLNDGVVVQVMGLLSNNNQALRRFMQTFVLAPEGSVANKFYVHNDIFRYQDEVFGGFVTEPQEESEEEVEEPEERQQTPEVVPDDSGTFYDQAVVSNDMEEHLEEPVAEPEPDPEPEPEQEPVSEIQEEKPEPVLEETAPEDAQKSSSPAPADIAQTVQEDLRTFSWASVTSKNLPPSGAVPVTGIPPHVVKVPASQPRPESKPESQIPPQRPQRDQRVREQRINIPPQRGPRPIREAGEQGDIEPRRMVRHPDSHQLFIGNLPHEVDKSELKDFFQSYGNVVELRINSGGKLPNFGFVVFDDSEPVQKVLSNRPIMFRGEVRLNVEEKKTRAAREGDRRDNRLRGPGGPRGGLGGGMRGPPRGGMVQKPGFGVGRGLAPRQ
Technique: RNA Bind-n-Seq
Molecule type: RNA
Matrix: in vitro
Concentration: 200 nM
Setting: whole 134-nt RNA, ends assumed
Together with: 150 mM LiCl
Baseline: input library
Direction: higher = stronger binding
Library: 7-deaza-guanosine replaces G
Constant ends, left off below: GGGAGUUCUACAGUCCGACGAUC … UGGAAUUCUCGGGUGUCAAGG
Strand | log2 enrichment
GCAGGAAGUAAAAACAAAUGGAAAUGCUUCGGAUAGUGGCAGGGGUGGGGGUUGCUCAGGAAAGGGUGGGAUGGGAGUGGGUAAAGAGUU | 0.069
AAGUCCUGUGCUACACAUCGUAUGUACCGAAUCGGGCCCCGGCCCCGGCCCCGGGGAAAGUAUUAUGUUACGCCGUUCGGAUCUGCACUU | -0.394
UCAAGUCCUGUGCUACACAUCGUAUGUACCGAAUCGGGUUUGGGUUUGGGUGGGAAAGUAUUAUGUUACGCCGUUCGGAUCUGCACUUCC | -0.572
CAAGUCCUGUGCUACACAUCGUAUGUACCGAAUCGGUUUGGAAAAAAAGGAAAGGAAAGUAUUAUGUUACGCCGUUCGGAUCUGCACUUC | -1.27
ACCAUGCAGGUGGGCAUCUUUGGGAAGUGGGGGAAGGGGGGGAUAGGGAGGGGGGUAACACUUUGGGAACAGGUGGUCCCAGGUCGUUUC | 0.231
AAGUCCUGUGCUACACAUCGUAUGUACCGAAUCGGGAAAAAGGGAGGGAAAAAGGGAAAGUAUUAUGUUACGCCGUUCGGAUCUGCACUU | 0.0176
UAACUUUAGAGGAGGAUCUGAUGCAUAUGGCAGUGGACGUGGAUUUGGGGAUGGCUAUAAUGGGUAUGGAGGAGGACCUGGAGGUGGCAA | 0.448
UAACUUUAGAGGAGGAUCUGAUGGAUAUGGCAGUGGACGUGGAUUUGGGGAUGGCUAUAAUGGAUAUGGAGGAGGACCUGGAGGUGGCAA | 0.244
UUGACAUGAAGACAAUGGAGACUGCAGAGAAACUGGCUAGAUUUGUUGCUCAGGUGGGACCAGAGAUCGAACAAUUCAGCAUAGAAAACA | -1.43

A few entries again (study 4):
Strand | fluorescence intensity
CGTCCTAGCGATTGACACGTGTTTTCCATGAGGAAG | 1620 a.u.
GTCTTGTCTCATTGCTTGGTGGGTGTCCCCACTTCA | 68.3 a.u.
ACTCAAAAGCGTACTCACGTTTTGAAGAAGAACCCA | 175 a.u.
TGCGCAACAACTTTTCACGTGCGTTTATGTCTAGAA | 1080 a.u.
CTTCTGTAAATTTGTCACGACACTTGACGCGCCCCG | 252 a.u.
AGAGGCCCCAGGAGCAACGTGATGGTATAACTGCCC | 178 a.u.
GTCTTGTCTCATTGGTGGGTGGGTGTCCCCACTTCA | 89.6 a.u.
